{"data": "Results collected from several papers", "note": "Numbered parts are unrelated; each lists some results of a single study.", "chain of UniProt Q9Y6R4 (whole entry, looked up)": "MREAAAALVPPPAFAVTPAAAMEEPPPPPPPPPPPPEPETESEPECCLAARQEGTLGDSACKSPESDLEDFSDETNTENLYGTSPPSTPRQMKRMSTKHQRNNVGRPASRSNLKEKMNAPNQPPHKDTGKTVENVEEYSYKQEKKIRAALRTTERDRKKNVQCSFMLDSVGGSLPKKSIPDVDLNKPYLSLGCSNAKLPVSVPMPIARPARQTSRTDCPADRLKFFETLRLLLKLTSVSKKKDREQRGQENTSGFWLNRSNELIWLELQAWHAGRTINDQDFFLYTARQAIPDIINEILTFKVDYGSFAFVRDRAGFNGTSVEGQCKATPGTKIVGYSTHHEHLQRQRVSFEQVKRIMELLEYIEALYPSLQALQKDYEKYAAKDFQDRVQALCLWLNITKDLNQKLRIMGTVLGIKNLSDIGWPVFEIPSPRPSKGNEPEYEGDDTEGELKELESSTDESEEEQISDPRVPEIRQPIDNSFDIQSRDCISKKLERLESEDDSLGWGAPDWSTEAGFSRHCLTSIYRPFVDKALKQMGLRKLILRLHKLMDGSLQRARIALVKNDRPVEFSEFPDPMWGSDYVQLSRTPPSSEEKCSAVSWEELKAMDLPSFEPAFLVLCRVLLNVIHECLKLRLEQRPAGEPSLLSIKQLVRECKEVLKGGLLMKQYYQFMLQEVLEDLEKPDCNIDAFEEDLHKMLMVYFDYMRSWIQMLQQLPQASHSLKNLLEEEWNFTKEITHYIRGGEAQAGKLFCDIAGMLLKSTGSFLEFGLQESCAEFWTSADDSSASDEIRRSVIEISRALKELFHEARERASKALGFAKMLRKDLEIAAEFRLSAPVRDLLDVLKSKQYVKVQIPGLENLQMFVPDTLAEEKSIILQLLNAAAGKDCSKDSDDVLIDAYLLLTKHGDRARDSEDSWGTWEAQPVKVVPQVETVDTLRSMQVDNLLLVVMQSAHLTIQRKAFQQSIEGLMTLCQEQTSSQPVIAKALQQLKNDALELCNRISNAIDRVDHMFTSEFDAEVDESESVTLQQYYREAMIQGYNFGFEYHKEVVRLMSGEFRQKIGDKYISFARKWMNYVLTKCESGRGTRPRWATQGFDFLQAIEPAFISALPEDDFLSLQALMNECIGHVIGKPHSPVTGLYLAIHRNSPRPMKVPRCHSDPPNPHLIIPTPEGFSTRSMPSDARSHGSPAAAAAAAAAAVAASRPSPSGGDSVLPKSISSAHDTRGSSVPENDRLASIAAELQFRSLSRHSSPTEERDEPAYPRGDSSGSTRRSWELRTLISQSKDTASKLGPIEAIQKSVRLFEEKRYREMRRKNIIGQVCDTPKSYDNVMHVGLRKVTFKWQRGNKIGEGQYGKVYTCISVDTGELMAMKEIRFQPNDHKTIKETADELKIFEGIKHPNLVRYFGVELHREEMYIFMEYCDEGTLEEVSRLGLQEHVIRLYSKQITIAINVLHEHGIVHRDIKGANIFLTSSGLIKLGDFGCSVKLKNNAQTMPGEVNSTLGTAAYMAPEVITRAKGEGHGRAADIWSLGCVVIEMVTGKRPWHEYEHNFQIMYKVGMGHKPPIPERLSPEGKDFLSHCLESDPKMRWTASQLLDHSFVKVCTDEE", "chain of UniProt Q12851 (whole entry, looked up)": "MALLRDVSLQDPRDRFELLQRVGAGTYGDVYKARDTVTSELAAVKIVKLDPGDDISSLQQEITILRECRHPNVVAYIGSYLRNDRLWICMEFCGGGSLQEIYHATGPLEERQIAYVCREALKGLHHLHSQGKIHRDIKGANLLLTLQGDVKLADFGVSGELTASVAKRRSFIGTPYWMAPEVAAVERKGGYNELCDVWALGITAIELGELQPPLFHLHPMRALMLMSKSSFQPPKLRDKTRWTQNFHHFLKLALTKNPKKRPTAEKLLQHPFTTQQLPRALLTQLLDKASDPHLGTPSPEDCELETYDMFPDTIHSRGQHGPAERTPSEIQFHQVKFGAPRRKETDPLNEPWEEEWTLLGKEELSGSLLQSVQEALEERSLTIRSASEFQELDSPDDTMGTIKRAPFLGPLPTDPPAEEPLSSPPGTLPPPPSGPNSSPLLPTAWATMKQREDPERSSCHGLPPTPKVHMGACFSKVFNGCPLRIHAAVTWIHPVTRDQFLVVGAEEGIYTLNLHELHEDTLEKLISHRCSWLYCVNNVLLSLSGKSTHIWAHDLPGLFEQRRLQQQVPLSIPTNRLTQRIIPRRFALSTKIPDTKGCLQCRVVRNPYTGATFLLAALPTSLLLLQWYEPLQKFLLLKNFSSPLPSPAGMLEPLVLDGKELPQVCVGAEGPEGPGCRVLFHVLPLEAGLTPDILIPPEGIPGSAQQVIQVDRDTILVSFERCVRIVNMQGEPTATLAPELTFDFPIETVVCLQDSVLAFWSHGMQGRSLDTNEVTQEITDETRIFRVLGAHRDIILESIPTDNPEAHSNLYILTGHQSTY", "chain of UniProt Q9H2K8 (whole entry, looked up)": "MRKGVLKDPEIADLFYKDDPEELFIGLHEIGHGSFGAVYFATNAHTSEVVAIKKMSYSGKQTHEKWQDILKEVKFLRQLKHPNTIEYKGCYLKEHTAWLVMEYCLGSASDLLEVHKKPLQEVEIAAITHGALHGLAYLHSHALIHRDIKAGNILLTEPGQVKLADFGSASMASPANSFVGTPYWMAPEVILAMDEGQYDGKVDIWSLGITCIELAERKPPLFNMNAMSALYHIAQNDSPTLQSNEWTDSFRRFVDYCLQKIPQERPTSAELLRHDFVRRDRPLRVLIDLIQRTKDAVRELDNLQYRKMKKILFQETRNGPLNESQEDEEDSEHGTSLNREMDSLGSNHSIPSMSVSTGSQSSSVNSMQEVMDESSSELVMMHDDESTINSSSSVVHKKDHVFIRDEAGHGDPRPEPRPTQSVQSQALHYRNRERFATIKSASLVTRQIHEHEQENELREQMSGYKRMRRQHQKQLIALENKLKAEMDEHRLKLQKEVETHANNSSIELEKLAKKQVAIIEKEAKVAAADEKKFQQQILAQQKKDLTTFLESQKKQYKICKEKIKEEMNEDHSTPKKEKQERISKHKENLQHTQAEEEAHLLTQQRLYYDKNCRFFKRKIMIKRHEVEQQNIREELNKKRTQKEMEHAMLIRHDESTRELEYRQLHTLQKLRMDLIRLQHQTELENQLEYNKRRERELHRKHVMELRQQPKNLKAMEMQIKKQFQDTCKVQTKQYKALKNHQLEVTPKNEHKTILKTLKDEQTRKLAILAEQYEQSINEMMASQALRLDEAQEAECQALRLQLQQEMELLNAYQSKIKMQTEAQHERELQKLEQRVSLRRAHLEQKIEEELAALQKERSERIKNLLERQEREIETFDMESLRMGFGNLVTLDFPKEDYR", "chain of UniProt Q15759 (whole entry, looked up)": "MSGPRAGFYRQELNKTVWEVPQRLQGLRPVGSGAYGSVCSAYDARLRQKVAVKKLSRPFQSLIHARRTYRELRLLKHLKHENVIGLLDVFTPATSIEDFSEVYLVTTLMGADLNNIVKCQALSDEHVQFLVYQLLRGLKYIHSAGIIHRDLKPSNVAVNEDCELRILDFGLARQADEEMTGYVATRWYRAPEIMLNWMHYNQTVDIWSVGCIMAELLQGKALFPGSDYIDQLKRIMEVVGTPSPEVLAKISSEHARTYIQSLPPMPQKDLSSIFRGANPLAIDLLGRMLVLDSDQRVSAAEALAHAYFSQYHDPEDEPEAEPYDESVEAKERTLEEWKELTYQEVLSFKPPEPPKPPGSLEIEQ", "chain of UniProt Q15831 (whole entry, looked up)": "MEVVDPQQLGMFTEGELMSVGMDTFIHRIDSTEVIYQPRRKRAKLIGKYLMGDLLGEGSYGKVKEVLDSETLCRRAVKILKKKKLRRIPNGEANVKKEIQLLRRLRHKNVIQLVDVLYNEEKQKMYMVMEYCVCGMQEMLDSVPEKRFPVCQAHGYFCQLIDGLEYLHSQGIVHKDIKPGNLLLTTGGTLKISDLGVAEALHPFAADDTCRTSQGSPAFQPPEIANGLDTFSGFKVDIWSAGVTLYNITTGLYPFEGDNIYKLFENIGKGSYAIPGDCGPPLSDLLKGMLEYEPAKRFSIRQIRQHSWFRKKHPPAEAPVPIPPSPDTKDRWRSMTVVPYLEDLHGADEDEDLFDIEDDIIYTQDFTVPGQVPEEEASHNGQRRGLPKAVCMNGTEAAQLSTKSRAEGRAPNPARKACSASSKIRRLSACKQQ", "chain of UniProt O94804 (whole entry, looked up)": "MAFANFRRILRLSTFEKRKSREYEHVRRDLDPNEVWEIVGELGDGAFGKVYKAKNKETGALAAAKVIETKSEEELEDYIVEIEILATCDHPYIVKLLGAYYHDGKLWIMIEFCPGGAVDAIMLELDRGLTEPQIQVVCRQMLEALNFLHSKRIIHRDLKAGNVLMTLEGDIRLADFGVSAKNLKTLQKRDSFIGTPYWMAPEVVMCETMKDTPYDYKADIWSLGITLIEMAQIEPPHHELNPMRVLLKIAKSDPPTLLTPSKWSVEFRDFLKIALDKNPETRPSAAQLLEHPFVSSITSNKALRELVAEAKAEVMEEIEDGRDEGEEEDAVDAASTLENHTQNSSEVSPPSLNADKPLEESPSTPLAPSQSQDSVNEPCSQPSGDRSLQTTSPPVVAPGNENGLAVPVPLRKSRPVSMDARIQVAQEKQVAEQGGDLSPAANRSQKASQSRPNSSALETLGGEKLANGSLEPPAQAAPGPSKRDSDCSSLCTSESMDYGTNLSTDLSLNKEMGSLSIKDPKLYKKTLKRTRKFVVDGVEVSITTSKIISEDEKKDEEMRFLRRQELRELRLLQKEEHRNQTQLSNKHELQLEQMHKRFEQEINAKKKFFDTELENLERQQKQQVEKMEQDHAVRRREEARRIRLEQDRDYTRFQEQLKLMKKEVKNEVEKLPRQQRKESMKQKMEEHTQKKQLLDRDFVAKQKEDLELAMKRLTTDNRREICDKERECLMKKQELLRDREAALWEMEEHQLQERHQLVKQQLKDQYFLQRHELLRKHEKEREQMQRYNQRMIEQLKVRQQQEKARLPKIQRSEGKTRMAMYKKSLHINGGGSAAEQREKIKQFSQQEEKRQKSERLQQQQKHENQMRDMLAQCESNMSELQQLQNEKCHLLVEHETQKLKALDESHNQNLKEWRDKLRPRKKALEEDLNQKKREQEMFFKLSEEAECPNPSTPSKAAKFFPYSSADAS"}
{"data": "Sample 1", "organism": "Sarcocystis neurona", "effect on": "parasite growth", "concentration": "10 µM"}
{"Structure (SMILES)": "CN(C)c1ccc(O)c2c1C[C@H]1C[C@H]3[C@H](N(C)C)C(O)=C(C(N)=O)C(=O)[C@@]3(O)C(O)=C1C2=O", "inhibition [%]": 37.2}
{"Structure (SMILES)": "CC(N)C12CC3CC(CC(C3)C1)C2 (stereo not shown)", "inhibition [%]": -23.5}
{"Structure (SMILES)": "CC12CC3CC(C)(C1)CC(N)(C3)C2", "inhibition [%]": -25}
{"Structure (SMILES)": "O=c1ncc(F)c[nH]1", "inhibition [%]": 20.3}
{"Structure (SMILES)": "Cc1ccc(S(=O)(=O)NC(=O)NN2CCCCCC2)cc1", "inhibition [%]": -20.2}
{"data": "Sample 2", "medium": "1,9-decadiene/PBS", "pH": "7.4"}
{"SMILES": "CC(C)C[C@@H]1NC(=O)[C@H](CCC(=O)N2CCCC2)NC(=O)[C@H](CCC(=O)N2CCCC2)NC(=O)[C@@H](CCC(=O)N2CCCC2)NC(=O)[C@H](CC(C)C)NC(=O)[C@@H](CC(C)C)NC(=O)[C@H](CC(C)C)NC1=O", "logD": -2.01}
{"SMILES": "CC(C)C[C@@H]1NC(=O)[C@H](Cc2cscn2)NC(=O)[C@@H](CC(C)C)NC(=O)[C@H](CC(C)C)NC(=O)[C@@H](CCC(=O)N2CCCC2)NC(=O)[C@H](CC(C)C)NC(=O)[C@@H](CC(C)C)NC1=O", "logD": 0.128}
{"SMILES": "CC(C)C[C@@H]1NC(=O)[C@H](C)NC(=O)[C@H](Cc2cscn2)NC(=O)[C@H](CCC(=O)N2CCCC2)NC(=O)[C@H](CC(C)C)NC(=O)[C@H](CC(C)C)NC(=O)[C@H](CC(C)C)NC1=O", "logD": -1.52}
{"SMILES": "CC(C)C[C@@H]1NC(=O)[C@H](C)NC(=O)[C@H](C)NC(=O)[C@H](CCC(=O)N2CCCC2)NC(=O)[C@H](CC(C)C)NC(=O)[C@H](CC(C)C)NC(=O)[C@H](CC(C)C)NC1=O", "logD": -1.87}
{"SMILES": "CC(C)C[C@@H]1NC(=O)[C@H](CC(C)C)NC(=O)[C@H](CC(C)C)NC(=O)[C@H](C(C)C)NC(=O)[C@H](C)NC(=O)[C@H](Cc2cscn2)NC(=O)[C@H](CCC(=O)N2CCCC2)NC1=O", "logD": -1.88}
{"data": "Sample 3", "host": "mouse", "medium": "microsomes or S9", "concentration": "2 µM", "time": "0.5 h"}
{"Compound": "O=C(NC1CCCCC1)c1nnn(-c2ccccc2Cl)c1-c1cccnc1", "remaining compound [%]": 29.3}
{"Compound": "CC1CCCC(=O)CCC/C=C/c2cc3c(c(O)c2C(=O)O1)C(c1ccc(OCC(N)=O)cc1)CC(=O)O3 (stereo not shown)", "remaining compound [%]": 8.26}
{"Compound": "O=C(c1ccc(F)cc1)c1c2nc[nH]c(=O)c2c2ccccn12", "remaining compound [%]": 56.1}
{"Compound": "CCc1ccc(S(=O)(=O)C2CS(=O)(=O)CC2NCc2ccccc2C)cc1 (stereo not shown)", "remaining compound [%]": 0.0254}
{"Compound": "Cc1cccn2c(=O)c(/C=N/O)c(NCc3ccco3)nc12", "remaining compound [%]": "> 99"}
{"Compound": "CC(C)COc1cc(=O)n2c(c1C(=O)N1CCN(c3ccccn3)CC1)CCCCC2", "remaining compound [%]": 4.64}
{"Compound": "Cc1ccc(S(=O)(=O)N(C)c2ccccc2)s1", "remaining compound [%]": 0.606}
{"data": "Sample 4", "Structure (SMILES)": "COc1cccc(CNC(=O)c2nc3scc(COCc4ccc(C(=O)O)cc4)c3c(=O)[nH]2)c1", "effect on": "cell-free assay", "technique": "competition with immobilised ligand", "concentration": "1 µM"}
{"target": "Receptor-type tyrosine-protein kinase FLT3 (FLT3, Homo sapiens, UniProt P36888, D835H)", "remaining binding": "92.9%"}
{"target": "Serine/threonine-protein kinase 32C (STK32C, Homo sapiens, UniProt Q86UX6)", "remaining binding": "89.6%"}
{"target": "Serine/threonine-protein kinase TAO3 (TAOK3, Homo sapiens, UniProt Q9H2K8)", "remaining binding": "72.3%"}
{"target": "Hepatocyte growth factor receptor (MET, Homo sapiens, UniProt P08581, Y1235D)", "remaining binding": "100%"}
{"target": "Mitogen-activated protein kinase kinase kinase 4 (MAP3K4, Homo sapiens, UniProt Q9Y6R4)", "remaining binding": "86.6%"}
{"target": "Serine/threonine-protein kinase STK11 (STK11, Homo sapiens, UniProt Q15831)", "remaining binding": "97.2%"}
{"target": "Inhibitor of nuclear factor kappa-B kinase subunit alpha (CHUK, Homo sapiens, UniProt O15111)", "remaining binding": "64.8%"}
{"target": "Non-receptor tyrosine-protein kinase TYK2, JH1 (TYK2, Homo sapiens, UniProt P29597)", "remaining binding": "95%"}
{"target": "Ribosomal protein S6 kinase alpha-2, N-terminal kinase domain (RPS6KA2, Homo sapiens, UniProt Q15349)", "remaining binding": "100%"}
{"target": "Mitogen-activated protein kinase kinase kinase kinase 2 (MAP4K2, Homo sapiens, UniProt Q12851)", "remaining binding": "83%"}
{"target": "Serine/threonine-protein kinase 10 (STK10, Homo sapiens, UniProt O94804)", "remaining binding": "67.8%"}
{"target": "Phosphatidylinositol 4,5-bisphosphate 3-kinase catalytic subunit alpha isoform (PIK3CA, Homo sapiens, UniProt P42336, Q546K)", "remaining binding": "70.4%"}
{"target": "Mitogen-activated protein kinase kinase kinase 19 (MAP3K19, Homo sapiens, UniProt Q56UN5)", "remaining binding": "79.2%"}
{"target": "Mitogen-activated protein kinase 11 (MAPK11, Homo sapiens, UniProt Q15759)", "remaining binding": "100%"}
{"note": "Some of these lines once more (sample 4):"}
{"target": "Receptor-type tyrosine-protein kinase FLT3 (FLT3, Homo sapiens, UniProt P36888, D835H)", "remaining binding": "92.9%"}
{"target": "Serine/threonine-protein kinase 32C (STK32C, Homo sapiens, UniProt Q86UX6)", "remaining binding": "89.6%"}
{"target": "Serine/threonine-protein kinase TAO3 (TAOK3, Homo sapiens, UniProt Q9H2K8)", "remaining binding": "72.3%"}
